Assay results from different studies.
Each numbered part is a random draw from the data of one study; scales do not carry over between parts.

Series 1
Target: Prothrombin, mature alpha-thrombin (F2, Homo sapiens, UniProt P00734)
Technique: aptamer microarray, sandwich
Molecule type: DNA with 2'F-ANA
Medium: in vitro
Tested at: 200 nM
Setting: whole 15-mer aptamer, many near background
With: Cy3 exosite-II aptamer, 400 nM
Direction: higher = stronger binding
Oligonucleotide: GGTTGGTGTGGTTGG
| Modification | mean fluorescence intensity [a.u.] |
| --- | --- |
| 2'F-ANA at 3 7 9 10 11 12 14 15 | 368 |
| 2'F-ANA at 1 3 6 8 9 10 11 12 14 15 | 64.5 |
| 2'F-ANA at 6 8 9 10 | 179 |
| 2'F-ANA at 3 10 11 12 13 14 | 425 |
| 2'F-ANA at 1 2 3 4 5 8 10 12 13 15 | 176 |
| 2'F-ANA at 1 2 3 5 8 10 13 14 | 44 |
| 2'F-ANA at 1 2 3 4 7 8 9 11 13 14 15 | 62.5 |
| 2'F-ANA at 4 5 10 11 13 14 | 42.7 |
| 2'F-ANA at 1 3 7 8 10 15 | 126 |
| 2'F-ANA at 1 4 6 7 8 9 10 11 | 81.5 |
| 2'F-ANA at 1 2 3 6 10 12 14 15 | 228 |
| 2'F-ANA at 4 5 6 8 9 14 15 | 49.6 |
| 2'F-ANA at 5 6 8 10 14 | 45.9 |
| 2'F-ANA at 1 5 6 9 11 | 55.1 |
| 2'F-ANA at 1 4 5 7 8 9 10 14 | 50.6 |
| 2'F-ANA at 3 4 6 11 15 | 479 |
| 2'F-ANA at 4 5 6 8 11 12 13 14 15 | 45.5 |
| 2'F-ANA at 1 3 5 8 10 13 14 15 | 49.5 |
| 2'F-ANA at 1 2 4 7 9 10 11 13 14 | 47.7 |
| 2'F-ANA at 1 4 5 7 9 12 13 14 | 55.4 |
| 2'F-ANA at 1 3 4 5 7 9 10 11 13 | 57 |
| 2'F-ANA at 1 4 5 8 10 12 13 14 | 46.3 |

Series 2
Target: Sal-like protein 4, full length isoform A (SALL4, Homo sapiens, UniProt Q9UJQ4, residues 1-1053)
Sequence of UniProt Q9UJQ4 (whole entry, looked up): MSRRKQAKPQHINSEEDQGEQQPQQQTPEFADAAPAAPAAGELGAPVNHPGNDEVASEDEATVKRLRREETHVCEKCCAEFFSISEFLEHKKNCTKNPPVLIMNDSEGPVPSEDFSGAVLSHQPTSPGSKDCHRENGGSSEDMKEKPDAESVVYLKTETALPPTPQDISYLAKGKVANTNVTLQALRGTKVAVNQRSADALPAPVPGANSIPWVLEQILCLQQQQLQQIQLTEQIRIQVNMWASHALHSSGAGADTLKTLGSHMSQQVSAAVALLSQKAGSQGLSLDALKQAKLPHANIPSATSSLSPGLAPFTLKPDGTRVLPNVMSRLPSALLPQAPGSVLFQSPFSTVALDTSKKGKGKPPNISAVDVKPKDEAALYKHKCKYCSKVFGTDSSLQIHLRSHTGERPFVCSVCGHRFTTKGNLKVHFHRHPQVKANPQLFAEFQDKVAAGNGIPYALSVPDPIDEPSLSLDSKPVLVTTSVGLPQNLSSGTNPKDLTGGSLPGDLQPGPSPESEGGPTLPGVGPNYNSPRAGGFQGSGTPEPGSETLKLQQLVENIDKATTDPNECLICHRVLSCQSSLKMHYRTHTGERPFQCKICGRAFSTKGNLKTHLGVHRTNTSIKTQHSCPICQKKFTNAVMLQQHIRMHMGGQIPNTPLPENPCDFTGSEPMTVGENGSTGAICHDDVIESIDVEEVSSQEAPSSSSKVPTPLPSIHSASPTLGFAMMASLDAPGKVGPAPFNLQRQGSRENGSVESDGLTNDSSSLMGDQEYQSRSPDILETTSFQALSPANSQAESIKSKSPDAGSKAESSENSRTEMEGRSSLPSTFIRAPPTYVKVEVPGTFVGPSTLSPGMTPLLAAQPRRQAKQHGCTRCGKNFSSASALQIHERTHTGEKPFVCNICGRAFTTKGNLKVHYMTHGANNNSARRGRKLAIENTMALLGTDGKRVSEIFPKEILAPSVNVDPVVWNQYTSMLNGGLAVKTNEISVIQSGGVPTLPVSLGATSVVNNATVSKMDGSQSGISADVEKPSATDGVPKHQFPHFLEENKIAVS
Technique: universal PBM
Molecule type: double-stranded DNA, one strand shown
Medium: in vitro
Tested at: 600 nM
Setting: 8-mer, flanks averaged, mean of replicates
Direction: higher = stronger binding
| Oligonucleotide | E-score |
| --- | --- |
| CGGTATTA | 0.125 |
| TACCGTGA | -0.0739 |
| GATCGGGC | -0.334 |
| GTAGGGAC | -0.0807 |
| CATTACAG | 0.166 |
| AAACCCAG | -0.0771 |
| CATAACGG | 0.0825 |
| CCCGGGCG | -0.322 |
| CAACCTGG | -0.158 |
| ACAAGAAT | 0.216 |
| CATCACGC | -0.139 |
| GGTTTAAA | 0.192 |
| ACCTCGAT | -0.0869 |
| AATGTGCA | 0.216 |
| AGGTTGAC | 7.5e-05 |
| ACGTAGAG | -0.127 |
| ATGCCGGC | -0.171 |
| TGCAACCA | -0.126 |
| ACAAAGGA | 0.135 |
| AGTCCAAA | -0.0174 |
| GACTGAGA | -0.0239 |
| AAAATTTG | 0.346 |
| AAGCCCAT | -0.119 |
| ACTCACGG | -0.0997 |
| AACCGATC | -0.129 |

Series 3
Target: TAR DNA-binding protein 43, full length, His tag (TARDBP, Homo sapiens, UniProt Q13148, residues 1-414)
Technique: RNA Bind-n-Seq
Molecule type: RNA
Medium: in vitro
Tested at: 20 nM
Setting: 6-mer, flanks averaged, single round
With: 150 mM LiCl
Reference: input library
Direction: higher = stronger binding
| Oligonucleotide | 6-mer enrichment (R) |
| --- | --- |
| GCACCA | 0.984 |
| UGGGCA | 1.05 |
| AUCCUC | 0.849 |
| CUUACU | 0.903 |
| UAUCAG | 0.859 |
| UAACGG | 0.873 |
| CGCAUA | 0.886 |
| UGGAGA | 1.07 |
| AACAUA | 0.861 |
| GUAUUA | 0.997 |
| AUGUUG | 1.27 |
| CGUAUG | 1.1 |
| CGGUGU | 1.23 |
| GCGCAC | 0.965 |
| UUCUGU | 1.04 |
| ACGGUA | 0.891 |
| GCGCCC | 1.07 |
| GCCCGU | 0.971 |
| UAUUUU | 1.38 |
| GCGAGC | 0.977 |
| CUCUAG | 0.833 |
| CCCGGU | 0.991 |
| CAGGCG | 0.967 |
| UACCGG | 0.874 |
| UUCGCU | 0.884 |

Series 4
Target: RNA binding protein fox-1 homolog 2, RRM domain, GST-SBP tag (RBFOX2, Homo sapiens, UniProt O43251-10, residues 100-194)
Technique: RNA Bind-n-Seq
Molecule type: RNA
Medium: in vitro
Tested at: 365 nM
Setting: natural RNA segment, single round, ends assumed
Reference: no-protein control
Direction: higher = stronger binding
All sequences stand within: GGGAGUUCUACAGUCCGACGAUC … UGGAAUUCUCGGGUGCCAA
Target sequence (chain): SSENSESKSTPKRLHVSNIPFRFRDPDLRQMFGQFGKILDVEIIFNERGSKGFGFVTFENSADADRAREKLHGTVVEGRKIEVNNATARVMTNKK
| Oligonucleotide | RBNS enrichment (R) |
| --- | --- |
| CUGCAAAAAAAAGUUAAGCCAUAACAGCCUUUUUAUAUUUUAAUUUGUCACCUUUGCAUUGCAGAAUAAAUACCCAAUAACCGUUUUUAUAGGAGUUGCUCCUCUUUGCA | 2.6 |
| CGAGUGCCACAGGCAUUCUGCAUUGCUCUACUCUUAGGUUUGUGUGUGUGAUCCUUCCCCUCCCUGUCGCCCACUCCUCCCUCCUCUGGCUAUCCUACCCUGUCUGUGGG | 0.579 |
| GCUUAGUCAGCGUAGGAAUCCUCACUAAAGCAGAAGAAGUUCCAUUCAAAGUGCCAAUGAUAGAGUCAACAGGAAGGUUAAUGUUGGAAACACAAUCAGGUGUGGAUUGG | 0.411 |
| CUCUCCAAGUGGAAACGUGCUAACUUUUUCUGUAAAUCUGAAAUAAAAGGUGCUGUUCCUUCCUCUGACCCAGGACUGCUUUGUGUUUUCUGUCUUUCUCUCCAUGCAUU | 0.797 |
| CCAAGCAUAUAUAACUAGCUAGAAGUGGGCCAGGACAGGCCCGGCGCGGUGGCUCACGCCUGUAAUCCCAGCAGUUUGGGAGGUCGAGGUAGGUGGAUCACCUGAGGUCG | 1.82 |
| UGGACAGCAAGCAAGCCAUUUCCCCCCAUGUUCUCUUUCCUUCCUCCUACCCAUACUUCCUUCUCUGAGACUAUUCCAUGGGACCCACUUCCCUCUGGGUUCUCCUUUCC | 1.46 |
| ACUCUGGGUUUCAGAGAGUAGUAUUGGUUUCAGUCUGGUCUCAUUUCCAUUGCCUUAACGCUGGGUGGUCAGGGCCCCAAGGAACUCUGGAUCUAAGCUCAGGAGUACAC | 0.255 |
| UUUGGGUAGACAGUCUAAUUCAGUCCAAUUUUAAUCUGCAUUAAAAUAUGCAAUGCUAGACAAAGAUUUUCAAAAUAAAAAGCUAUUAUUUCAGAAAUUAUUUUAAAAGA | 0.521 |
